# Measured values from different studies.
# Each numbered part is a random draw from the data of one study; scales do not carry over between parts. Changes are numbered by the printed parent chain.

# Study 1
# Target: Fragile X messenger ribonucleoprotein 1, C-terminal low-complexity region (Fmr1, Mus musculus, UniProt P35922)
# Method: RNA Bind-n-Seq
# Molecule type: RNA
# Medium: in vitro
# Concentration: 200 nM
# Setting: whole 134-nt RNA, ends assumed
# Together with: 150 mM KCl
# Reference: input library
# Reading: higher = stronger binding
Oligonucleotide,log2 enrichment
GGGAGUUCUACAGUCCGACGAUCAGUCCUGUGCUACACAUCGUAUGUACCGAAUCGGGGUUUUGGGUUUUGGUUUUGGGGAAAGUAUUAUGUUACGCCGUUCGGAUCUGCACUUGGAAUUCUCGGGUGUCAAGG,0.251
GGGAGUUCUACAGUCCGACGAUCAGUCCUGUGCUACACAUCGUAUGUACCGAAUCGGGGUGGGGUUUGGGGUUUUUGGGGAAAGUAUUAUGUUACGCCGUUCGGAUCUGCACUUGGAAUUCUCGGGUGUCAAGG,1.28
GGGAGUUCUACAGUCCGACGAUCUGGGAGGUGGACUUUGUUUAUUUUUUUAGCUCAUUUCCAGGGGUGGGAAUUUUUUUUUAAUAUGUGUCAUGAAUAAAGUUGUUUUUGAAAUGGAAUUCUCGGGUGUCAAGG,-0.0274
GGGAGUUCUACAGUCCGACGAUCUGGCCCUGGUGGCAUGCGGGGAGGAAGAGGUGGCCUCAUGGAUCAUGGUGGUCCCGGUGGAAUGUUCAGAGGUGGCCGUGGUGGAGACAGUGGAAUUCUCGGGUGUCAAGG,-0.126
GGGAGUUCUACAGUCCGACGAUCCAAGUCCUGUGCUACACAUCGUAUGUACCGAAUCGGAGGUUUUUGGUUUUUUUGGAAAGUAUUAUGUUACGCCGUUCGGAUCUGCACUUCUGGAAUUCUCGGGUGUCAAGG,-0.824
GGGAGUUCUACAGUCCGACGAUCUCCUCAAGUCCUGUGCUACACAUCGUAUGUACCGAAUCGGGGUGGUGGUGGGAAAGUAUUAUGUUACGCCGUUCGGAUCUGCACUUCCAGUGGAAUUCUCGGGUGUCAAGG,0.65
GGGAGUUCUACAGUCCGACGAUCAGUCCUGUGCUACACAUCGUAUGUACCGAAUCGGGAAAAAGGGAGGGUUUUUUUGGGAAAGUAUUAUGUUACGCCGUUCGGAUCUGCACUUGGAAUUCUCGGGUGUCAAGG,0.491
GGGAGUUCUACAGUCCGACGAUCUCCUGUGCUACACAUCGUAUGUACCGAAUCAAACCCCCCCAAAUUUAAAUUUUUUUAAAAAAGUAUUAUGUUACGCCGUUCGGAUCUGCAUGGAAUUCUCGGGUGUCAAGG,0.457
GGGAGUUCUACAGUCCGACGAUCAGUCCUGUGCUACACAUCGUAUGUACCGAAUCGGCCCCCGGGCCCCCGGGCCCCCGGGAAAGUAUUAUGUUACGCCGUUCGGAUCUGCACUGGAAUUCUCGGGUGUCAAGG,-0.755
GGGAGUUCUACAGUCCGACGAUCAGUCCUGUGCUACACAUCGUAUGUACCGAAUCGGUUUUUUUGGUUUGGAAAAAAAGGAAAGUAUUAUGUUACGCCGUUCGGAUCUGCACUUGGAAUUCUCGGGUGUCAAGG,-1.18
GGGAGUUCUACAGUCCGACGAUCAAGUCCUGUGCUACACAUCGUAUGUACCGAAUCGGGGUUUUGGGUUUUGGUUUUGGAAAGUAUUAUGUUACGCCGUUCGGAUCUGCACUUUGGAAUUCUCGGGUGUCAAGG,-0.379
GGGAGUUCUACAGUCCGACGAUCCCUGUGCUACACAUCGUAUGUACCGAAUCGGGGAAAAAAAGGGGAGGGGAAAAAAAGGGGAAAGUAUUAUGUUACGCCGUUCGGAUCUGCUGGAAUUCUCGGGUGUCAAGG,-0.000793
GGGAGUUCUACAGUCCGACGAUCCAAGUCCUGUGCUACACAUCGUAUGUACCGAAUCGUGUGUGUGUGUGUGUGUGUGAAAGUAUUAUGUUACGCCGUUCGGAUCUGCACUUCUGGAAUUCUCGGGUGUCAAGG,0.474
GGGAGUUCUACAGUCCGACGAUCGUCCUGUGCUACACAUCGUAUGUACCGAAUCGGGUUUGGGAAAAAGGGAAAAAAAGGGAAAGUAUUAUGUUACGCCGUUCGGAUCUGCACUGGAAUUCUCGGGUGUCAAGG,-0.247

# Study 2
# Target: Prothrombin, mature alpha-thrombin (F2, Homo sapiens, UniProt P00734)
# Method: aptamer microarray, sandwich
# Molecule type: DNA with 2'F-ANA
# Medium: in vitro
# Concentration: 200 nM
# Setting: whole 15-mer aptamer, many near background
# Together with: Cy3 exosite-II aptamer, 400 nM
# Reading: higher = stronger binding
# Oligonucleotide: GGTTGGTGTGGTTGG
Modification,mean fluorescence intensity
2'F-ANA at 2 6 12 13 14,152 a.u.
2'F-ANA at 2 3 8 9 10 12,439 a.u.
2'F-ANA at 1 2 3 4 5 6 7 8 12 15,114 a.u.
2'F-ANA at 1 2 3 4 5 6 8 9 12,121 a.u.
2'F-ANA at 2 3 4 5 7 11 14,49 a.u.
2'F-ANA at 2 3 4 5 6 7 10 11 14,48.1 a.u.
2'F-ANA at 1 5 7 10 13 14 15,44.9 a.u.
2'F-ANA at 1 3 4 5 6 8 10 11 12 14,207 a.u.
2'F-ANA at 6 7 9 10 13 15,137 a.u.
2'F-ANA at 3 4 6 9 13 15,374 a.u.
2'F-ANA at 1 5 7 9,114 a.u.
2'F-ANA at 2 3 4 5 6 11 12 13 15,89.6 a.u.
2'F-ANA at 3 5 7 10 11 12 15,64.1 a.u.
2'F-ANA at 1 5 6 7 10 11 15,48.7 a.u.
2'F-ANA at 2 7 8 9 10 13 15,126 a.u.
2'F-ANA at 8 13 14,178 a.u.
2'F-ANA at 1 2 4 5 7 9 10 11 12 13 14,46.5 a.u.

# Study 3
# Target: Histone acetyltransferase KAT6A, winged helix 2, GST fusion (KAT6A, Homo sapiens, UniProt Q92794, residues 85-181)
# Method: protein binding microarray
# Molecule type: double-stranded DNA, one strand shown
# Medium: in vitro
# Concentration: not given
# Setting: 8-mer, flanks averaged, mean of 2 arrays, mostly near background
# Reference: not given
# Reading: higher = stronger binding
# Construct (chain): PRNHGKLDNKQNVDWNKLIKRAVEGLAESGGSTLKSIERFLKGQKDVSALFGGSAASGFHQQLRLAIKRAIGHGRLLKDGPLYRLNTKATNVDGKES
Oligonucleotide,E-score
CCTCATAC,-0.0523
GCCTAGGC,0.084
CGCGGTAA,0.159
AGCGGGGC,0.193
CCTCCAAG,0.0592
AAGGTGGT,-0.137
GTCCTTAA,0.0515
CGACCTCA,0.12
GAAGGAAA,0.107
CTTTGGGA,0.0762
ATACGTAC,-0.25
AATTTCAC,0.132
CAATGTTC,-0.139
CTCTGACA,0.121
TCGAAGAA,0.0715
CGGATTAC,-0.103
GATATAGC,-0.0667
GCGTGCAA,0.0686
AAGTGAGT,-0.115
CGTAATTA,-0.0953
GGGTGGGA,-0.0804
ATCGAAGG,0.0974
CTCCGCAC,0.0888
ACGTAGGC,-0.0307
GCATGCGA,0.0207

# Study 4
# Target: CCNE1, cyclin fold, Cln2 fusion (human)
# Method: yeast growth competition, sequencing
# Medium: yeast
# Setting: strong parent motif
# Reference: not given
# Reading: higher = stronger binding
# Starting sequence: E2F1 docking peptide (human); PPVKRRLDLETDH; partner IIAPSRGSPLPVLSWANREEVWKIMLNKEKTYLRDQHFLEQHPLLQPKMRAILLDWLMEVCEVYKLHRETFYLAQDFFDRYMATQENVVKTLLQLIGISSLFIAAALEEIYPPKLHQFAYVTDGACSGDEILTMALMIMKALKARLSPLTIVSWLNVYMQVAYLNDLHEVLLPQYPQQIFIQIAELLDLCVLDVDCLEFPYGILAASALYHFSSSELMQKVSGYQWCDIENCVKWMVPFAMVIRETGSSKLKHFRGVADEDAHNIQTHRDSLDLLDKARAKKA
Variant,normalised enrichment score
L7N,0.254
P2A,0.994
E10T,0.97
T11A,1.72
R5P,-0.325
P2M,0.424
E10S,1.27
L7V,-0.6
L7W,0.687
V3R,0.527
P2W,0.911
R5N,0.491
H13G,2.17
K4P,0.0785
D8Q,1.48
P1M,1.96
D8T,1.82
L7I,0.438
T11C,2.22
R5A L7A,-0.381
D12C,1.92
T11E,1.78
H13N,1.85
K4M,1.85
R6Y,0.341

# Study 5
# Target: RING finger protein unkempt homolog, zinc fingers 1-6, GST-SBP tag (UNK, Homo sapiens, UniProt Q9C0B0, residues 30-357)
# Method: RNA Bind-n-Seq
# Molecule type: RNA
# Medium: in vitro
# Concentration: not given
# Setting: RNA with constant flanks, human and mouse sites, ends assumed
# Reference: input RNA pool
# Reading: higher = stronger binding
# Target sequence (chain): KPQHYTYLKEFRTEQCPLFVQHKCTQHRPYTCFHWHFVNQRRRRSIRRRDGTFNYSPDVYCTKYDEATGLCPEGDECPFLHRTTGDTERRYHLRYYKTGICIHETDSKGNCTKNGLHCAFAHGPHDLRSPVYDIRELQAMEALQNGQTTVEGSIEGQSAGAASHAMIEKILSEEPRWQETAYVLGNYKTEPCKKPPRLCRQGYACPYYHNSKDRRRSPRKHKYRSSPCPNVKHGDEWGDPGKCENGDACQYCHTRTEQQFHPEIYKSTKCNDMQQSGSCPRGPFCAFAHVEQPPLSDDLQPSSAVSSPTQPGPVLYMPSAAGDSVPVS
Oligonucleotide,bound/input enrichment [ratio]
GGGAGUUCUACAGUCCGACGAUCAAGGCUGGUUCAUUGUUUCUCAUCUAUGAGUACGUGUGACCUUUUCCCAAACCUUAUUGGAAACCUUAAGUAACCAGUGGCUAAACAGAAAAGCCGGUUGCCCAACUGCAUUAAUGAACUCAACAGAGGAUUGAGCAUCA,0.351
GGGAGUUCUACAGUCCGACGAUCAAGGGUACAUCUGUGUGAAGGCUGGACGAAACCCCAACUACGGUUACACGAGCUUUGACACAUUUAGCUGGGCCUUCUUAUCGCUGUUUCGACUCAUGACUCAAGACUACUGGGAGAACCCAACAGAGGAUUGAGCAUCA,0.353
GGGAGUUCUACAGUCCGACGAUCGCAGGGCAAGAGGAUUAUGACAGACUACGACCGCUAAGUUAUCCACAGACAGAUGUUUUUCUAGUAUGUUUCUCAGUGGUCUCUCCAUCCUCAUUUGAAAAUGUGAAAGAAAAGUGGGUGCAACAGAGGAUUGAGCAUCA,0.376
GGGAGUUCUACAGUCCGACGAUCGUGACCAAUUUGUUGCAGUUACCUCAGUACUUUGAUUUGGAGAUAUACACCACUGGACGAUUAGAAAAGCAUUUGGAUGCCUUAUUGCGCCAGAUCCGAAAUAUUGUAGAGAAGCACACACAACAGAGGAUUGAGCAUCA,0.534
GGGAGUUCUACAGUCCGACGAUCGUCCCGUUUGACUUUACACAUAAAAAACAAUCAGGUGGUGCAGGCCAGUAUGGAAAAGUAAUAGGUGUCCUGGAGCCUCUGGACCCAGAGGACUACACUAAAUUGGAAUUUUCAGAUGAACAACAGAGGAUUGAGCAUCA,0.346
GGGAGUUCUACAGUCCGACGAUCCAGCCUCUGGGGCGCAUUCCAACCUUCCAGCCUGCGACCUGCGGAGAAAAAAAAUUACUUAUUUUCUUGCCCCAUACAUACCUUGAGGCGAGCAAAAAAAUUAAAUUUUAACCAUGAGGGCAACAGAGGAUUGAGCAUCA,0.247
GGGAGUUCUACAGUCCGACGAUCGGUCUCUCCAAACUGACUAUAUAUUUAUUUGUUAUUUUAAAAAUACAACUAUAUUUUGGGUAGUUUUUUUUUUUUUUUUUUUGAUAAGUUGGUGUAAGGCUAUGUGACUUGAUCAAAACACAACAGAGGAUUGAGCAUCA,1.32
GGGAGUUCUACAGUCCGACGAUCCUUCAGCAAGGUGGCCGCAUGCUCCCUGAGCUCUUCCAGUGUCACGGCUCUGCAGAUAACCUAGUUCUGCAUGCUUGGGGCAAGGAGACAAACUCAAAACUGAAAUCUCUAGGAGUGAGCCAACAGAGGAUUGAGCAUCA,0.0973
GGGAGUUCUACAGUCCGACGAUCGACCUUUAUGCCAAUGUCCGGCCAUGUGUCUCAAUUGAAGGUUAUAAAACCCCUUACACGGAUGUAAAUAUCGUCACCAUCCGAGAGAACACGGAAGGAGAAUACAGUGGAAUUGAGCAUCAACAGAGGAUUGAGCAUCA,0.201
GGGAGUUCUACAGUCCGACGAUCGAAGUAGAAGAUCCUGUGGAUUCUGAUGGUGAAGUCCUGGGCUUUGAAAAUCUCGUCUUUAGCAUUUUUGAAUUUGUCCAUGCUCUACUAGAAAAUAGCAAAUUCAAAAGCACUGUUAAGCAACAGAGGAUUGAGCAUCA,1.17
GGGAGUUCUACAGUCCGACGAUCUCCUGGAUGUGACAUUACUUAUUAAUCUUUUAGACAACCCUGUUAGGGAGGGUUCUUUACCUUUGAUCUCCUAUGGCCUUAUUCAGGAGGAAACCCCUGUGUCUUGAGACCAGGAAGAUACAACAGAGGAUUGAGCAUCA,2.41
